Results of several laboratories.
Compare with care: the assays were run in different laboratories.

SMILES | tested on | test | test system | conditions | scale | endpoint | result
O=C1NCCN1CCN1CCC(c2cn(-c3ccc(F)cc3)c3ccc(Cl)cc23)CC1 | seizure ion channel panel | ion current, inhibitor |  |  | lowest across channels | lowest IC30 | 2120 nM
Clc1nc(NCc2ccco2)c2[nH]cnc2n1 | human alpha-galactosidase A | activator | Fabry disease iPSC-cardiomyocytes | 10 µM | relative to: untreated | enzyme activity | 1.43 fold
CCCS(=O)(=O)Nc1ccc(F)c(C(=O)c2c[nH]c3ncc(-c4ccc(Cl)cc4)cc23)c1F | NLRP3 inflammasome (mouse) |  | mouse BMDM | 10 µM |  | inhibition | -77.4%
Oc1ccccc1-c1n[nH]cc1-c1ccnc2ccccc12 | NPR1 (Candida albicans) | kinase binding, MIB/MS competition | Candida albicans lysate | 1 µM | relative to: DMSO | log2 fold change | 0.06
C=CC(=O)N1CCC(COCC(=O)N2CCN(c3nc(-c4cnc(N)nc4C(F)F)nc(N4CCOC[C@@H]4C)n3)CC2)CC1 | FLT3 ITD F691L | KINOMEscan |  | 1 µM |  | remaining binding | 44%
CCN(C)C(=O)Oc1cccc([C@H](C)N(C)C)c1 | seizure ion channel panel | ion current, inhibitor |  |  | lowest across channels | lowest IC30 | > 30000 nM
N#Cc1ccn2c(-c3ccncc3)c(-c3ccc(F)cc3)nc2c1 | orf19.3456 kinase Candida albicans | MIB/MS competition binding | Candida albicans cell lysate | 100 nM | relative to: DMSO, lower = stronger binding | log2 fold change | -0.133
CC(Nc1nc(N2CCCC2)nc2ccccc12)c1ccccc1 (stereo not shown) | transportin-1/2 | FUS nuclear import, high content imaging | HeLa Kyoto reporter | 0.1 µM, 2 h |  | cells with nuclear reporter | 93.7%
CC#C[C@]1(O)CC[C@H]2[C@@H]3CCC4=CC(=O)CCC4=C3[C@@H](c3ccc(N(C)C)cc3)C[C@@]21C | androgen receptor pathway | antagonist |  | concentration not given | direction not given | AUC antagonist score | 1.21
C=CC(=O)Nc1cc(Nc2nccc(-c3cn(C)c4ccccc34)n2)c(OC)cc1N(C)CCN(C)C | NLRP3 inflammasome (mouse) |  | mouse BMDM | 10 µM |  | inhibition | 74.5%
CC[C@H](C)C(=O)O[C@H]1C[C@H](O)C=C2C=C[C@H](C)[C@H](CC[C@@H](O)C[C@@H](O)CC(=O)O)[C@H]21 | seizure ion channel panel | ion current, inhibitor |  |  | lowest across channels | lowest IC30 | > 30000 nM
O=C1OC2(c3ccc(O)cc3Oc3cc(O)ccc32)c2ccccc21 | anti-compound antibody Fv | T-cell killing, split BiTE reconstitution | SK-BR-3 |  |  | EC50 | 200 nM
Cc1cnc(NC2CCOCC2)nc1-n1cnc(C(=O)NC(CN)c2cc(F)cc(Cl)c2)c1 (stereo not shown) | casein kinase 1 (Saccharomyces cerevisiae) | enzyme activity, inhibitor, radiometric kinase |  | 1 µM |  | remaining activity | 92%
c1ccc(-c2n[nH]cc2-c2ccnc3ccccc23)nc1 | orf19.3456 kinase Candida albicans | MIB/MS competition binding | Candida albicans cell lysate | 100 nM | relative to: DMSO, lower = stronger binding | log2 fold change | 1.33
COc1cnc(Nc2cccc(S(N)(=O)=O)c2)nc1N1CCN(c2ccccc2)C(=O)C1 | human FLT3 ITD/D835V | binding, KINOMEscan |  | 1000 nM | lower = stronger binding | percent of control | 61%
CC(C)Oc1ccc(-c2nn([C@@H](C)c3oc4ccc(F)cc4c(=O)c3-c3cccc(F)c3)c3ncnc(N)c23)cc1F | NLRP3 inflammasome (mouse) |  | mouse BMDM | 10 µM |  | inhibition | -19.1%
N=C(NCCCSC[C@H]1O[C@@H](n2cnc3c(NCCCc4ccccc4)ncnc32)[C@H](O)[C@@H]1O)Nc1ccccc1 | CamA DNA adenine methyltransferase (Clostridioides difficile) | enzyme activity, inhibitor, MTase-Glo luminescence (SAH) |  | 10 µM, 3 min, pH 7.5, 22 °C, together with: SAM 40 µM |  | inhibition | < 10%

SMILES | tested on | test | test system | conditions | scale | endpoint | result
N#Cc1ccc2c(-c3ccncc3)c(-c3ccc(F)cc3)nn2c1 | orf19.3456 kinase Candida albicans | MIB/MS competition binding | Candida albicans cell lysate | 1 µM | relative to: DMSO, lower = stronger binding | log2 fold change | 0.00688
C[C@@H]1CCN(C(=O)CC#N)C[C@@H]1N(C)c1ncnc2[nH]ccc12 | NLRP3 inflammasome (mouse) |  | mouse BMDM | 10 µM |  | inhibition | -19%
CCC(=O)NC[C@@H]1C[C@H]1c1cccc2c1CCO2 | seizure ion channel panel | ion current, inhibitor |  |  | lowest across channels | lowest IC30 | > 30000 nM
O=C(Nc1cc(Oc2cc(F)c(NC(=O)C3(C(=O)Nc4ccc(F)cc4)CC3)cc2F)ccn1)C1CC1 | NLRP3 inflammasome (mouse) |  | mouse BMDM | 10 µM |  | inhibition | -15.6%
O=P(O)(O)O[C@H]1O[C@H](CO)[C@@H](O)[C@H]1O |  | binding, equilibrium dialysis LC-MS |  | 5 µM, thermostabilized A2AR-BRIL construct | relative to: no-protein control, direction not given | z-scored log2 fold change | 0.268
C=CC(=O)N1CCC(C(=O)NCC(=O)N2CCN(c3nc(-c4cnc(N)nc4C(F)F)nc(N4CCOCC4)n3)CC2)CC1 | FLT3 ITD | KINOMEscan |  | 1 µM | relative to: vehicle | remaining binding | 97%
C1=C/COCc2cc(ccc2OCCN2CCCC2)Nc2nccc(n2)-c2cccc(c2)COC/1 | FLT3 ITD | kinase binding panel |  | concentration not given |  | remaining binding | 4.3%
CC1(C)NC(=O)N(c2ccc([N+](=O)[O-])c(C(F)(F)F)c2)C1=O | androgen receptor pathway | antagonist |  | concentration not given | direction not given | AUC antagonist score | 0.846
O=C1NC(=O)[C@@H](c2cn3c4c(cccc24)CCC3)[C@@H]1c1c[nH]c2ccccc12 | NLRP3 inflammasome (mouse) |  | mouse BMDM | 10 µM |  | inhibition | 91%
N=C(NCCCSC[C@H]1O[C@@H](n2cnc3c(NCCCc4ccccc4)ncnc32)[C@H](O)[C@@H]1O)NCC1CC1 | CamA DNA adenine methyltransferase (Clostridioides difficile) | enzyme activity, inhibitor, MTase-Glo luminescence (SAH) |  | 10 µM, 3 min, pH 7.5, 22 °C, together with: SAM 40 µM |  | inhibition | < 10%
NCc1[nH]cc(CCC(=O)O)c1CC(=O)O |  | binding, equilibrium dialysis LC-MS |  | 5 µM, thermostabilized A2AR-BRIL construct | relative to: no-protein control, direction not given | z-scored log2 fold change | 0.335
CC(C)COc1ccc(CNC(=O)N(Cc2ccc(F)cc2)C2CCN(C)CC2)cc1 | seizure ion channel panel | ion current, inhibitor |  |  | lowest across channels | lowest IC30 | 561 nM
C[C@@H](c1ccc(-n2cnc3c(N)ncnc32)cc1)N1CCc2nn(C)c(Cc3ccccc3)c2C1=O | FLT3 ITD F691L | KINOMEscan |  | 100 nM | relative to: DMSO | remaining binding | 98%
C=CC(=O)Nc1cccc(Oc2nc(Nc3ccc(N4CCN(C)CC4)c(F)c3)nc3[nH]ccc23)c1 | NLRP3 inflammasome (mouse) |  | mouse BMDM | 10 µM |  | inhibition | 95.1%
C#C[C@]1(O)CC[C@H]2[C@@H]3CCc4cc(O)ccc4[C@H]3CC[C@@]21C | androgen receptor pathway | agonist |  | concentration not given | direction not given | AUC agonist score | 0
Cc1ccc(-n2nc(C(C)(C)C)cc2NC(=O)NCc2cc(F)ccc2Oc2ccc3c(cnn3CCO)c2)cc1 | NLRP3 inflammasome (mouse) |  | mouse BMDM | 10 µM |  | inhibition | -31.9%
c1coc(-c2n[nH]cc2-c2ccnc3ccccc23)c1 | NPR1 (Candida albicans) | kinase binding, MIB/MS competition | Candida albicans lysate | 10 µM | relative to: DMSO | log2 fold change | -0.1
